Results gathered from unrelated publications.
Each numbered part is a random draw from the data of one study; scales do not carry over between parts. Values joined by “and” are separate records of one study, mostly repeats; a detail may differ.
Chain of UniProt Q12851 (whole entry, looked up): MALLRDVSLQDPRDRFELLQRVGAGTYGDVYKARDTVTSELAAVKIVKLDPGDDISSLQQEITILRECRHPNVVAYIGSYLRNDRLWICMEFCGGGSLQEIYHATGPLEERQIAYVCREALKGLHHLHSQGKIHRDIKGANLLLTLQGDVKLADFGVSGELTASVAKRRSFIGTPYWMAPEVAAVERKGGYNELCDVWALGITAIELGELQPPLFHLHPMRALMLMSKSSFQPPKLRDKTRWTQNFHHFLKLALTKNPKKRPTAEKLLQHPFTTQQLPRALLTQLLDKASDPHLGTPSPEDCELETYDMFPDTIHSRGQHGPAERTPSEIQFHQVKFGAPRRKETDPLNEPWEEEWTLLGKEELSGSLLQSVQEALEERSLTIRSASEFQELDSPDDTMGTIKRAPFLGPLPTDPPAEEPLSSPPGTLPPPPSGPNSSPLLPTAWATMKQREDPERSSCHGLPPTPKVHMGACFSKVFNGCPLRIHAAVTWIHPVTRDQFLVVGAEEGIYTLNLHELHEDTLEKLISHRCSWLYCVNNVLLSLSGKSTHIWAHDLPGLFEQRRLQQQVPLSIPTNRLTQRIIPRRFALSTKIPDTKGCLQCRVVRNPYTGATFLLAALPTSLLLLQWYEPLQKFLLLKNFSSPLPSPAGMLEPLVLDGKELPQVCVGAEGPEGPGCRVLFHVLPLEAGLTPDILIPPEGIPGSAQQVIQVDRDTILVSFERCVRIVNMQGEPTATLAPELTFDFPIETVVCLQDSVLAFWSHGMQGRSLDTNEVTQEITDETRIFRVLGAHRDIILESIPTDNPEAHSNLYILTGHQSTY
Chain of UniProt Q05655 (whole entry, looked up): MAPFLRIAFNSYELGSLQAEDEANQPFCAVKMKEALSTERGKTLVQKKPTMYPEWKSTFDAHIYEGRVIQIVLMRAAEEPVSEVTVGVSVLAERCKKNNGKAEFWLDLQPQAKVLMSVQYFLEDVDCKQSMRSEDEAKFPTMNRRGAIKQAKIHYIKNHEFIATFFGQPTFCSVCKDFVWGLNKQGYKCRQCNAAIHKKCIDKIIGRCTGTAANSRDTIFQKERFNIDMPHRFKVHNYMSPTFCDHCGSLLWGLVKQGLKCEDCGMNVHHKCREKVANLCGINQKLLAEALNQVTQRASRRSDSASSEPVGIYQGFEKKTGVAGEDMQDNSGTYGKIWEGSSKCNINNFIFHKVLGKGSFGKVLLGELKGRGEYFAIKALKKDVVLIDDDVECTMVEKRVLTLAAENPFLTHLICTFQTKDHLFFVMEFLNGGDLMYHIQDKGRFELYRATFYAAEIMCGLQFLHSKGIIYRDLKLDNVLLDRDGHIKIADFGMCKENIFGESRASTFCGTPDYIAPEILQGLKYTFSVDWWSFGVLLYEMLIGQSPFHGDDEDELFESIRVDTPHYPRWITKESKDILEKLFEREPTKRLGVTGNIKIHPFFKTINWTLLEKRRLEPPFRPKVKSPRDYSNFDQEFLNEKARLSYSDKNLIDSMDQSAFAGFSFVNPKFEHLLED
Chain of UniProt P53778 (whole entry, looked up): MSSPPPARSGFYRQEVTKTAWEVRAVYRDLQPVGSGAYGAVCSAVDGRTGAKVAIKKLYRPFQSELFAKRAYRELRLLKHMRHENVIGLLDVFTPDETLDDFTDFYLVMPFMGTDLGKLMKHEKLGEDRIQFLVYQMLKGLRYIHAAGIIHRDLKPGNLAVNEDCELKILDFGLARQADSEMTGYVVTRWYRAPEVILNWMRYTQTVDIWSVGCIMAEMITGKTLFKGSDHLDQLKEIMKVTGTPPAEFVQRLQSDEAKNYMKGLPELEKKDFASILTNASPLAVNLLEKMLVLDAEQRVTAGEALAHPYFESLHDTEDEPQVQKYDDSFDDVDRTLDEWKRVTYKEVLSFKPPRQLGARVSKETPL

Study 1 — read-out: cell-free assay; technique: competition with immobilised ligand; tested at: 1 µM
SMILES: Cc1nc(C2CCN(C(=O)c3ccc(OC(F)(F)F)cc3N)CC2)c2ncc(N3CCN(C)CC3)cc2n1
The remaining binding was 100% (ERN1 (Homo sapiens, UniProt O75460)).
It gave 82% for remaining binding (MAP3K1 (Homo sapiens, UniProt Q13233)).
The remaining binding was 80% (MAP4K2 (Homo sapiens, UniProt Q12851)).
It gave 94% for remaining binding (WNK3 (Homo sapiens, UniProt Q9BYP7)).
For Non-receptor tyrosine-protein kinase TYK2, JH1 (TYK2, Homo sapiens, UniProt P29597): remaining binding read 100%.
For BMPR2 (Homo sapiens, UniProt Q13873): remaining binding read 100%.
For MAP3K15 (Homo sapiens, UniProt Q6ZN16): remaining binding read 92%.
STK10 (Homo sapiens, UniProt O94804) — remaining binding: 96%.
It gave 100% for remaining binding (AKT2 (Homo sapiens, UniProt P31751)).
The remaining binding was 79% (SRPK1 (Homo sapiens, UniProt Q96SB4)).
For MAP3K6 (Homo sapiens, UniProt O95382): remaining binding read 100%.
It gave 97% for remaining binding (MET (Homo sapiens, UniProt P08581, M1250T)).
MYLK4 (Homo sapiens, UniProt Q86YV6) — remaining binding: 100%.
The remaining binding was 93% (BMPR1B (Homo sapiens, UniProt O00238)).
The remaining binding was 100% (HASPIN (Homo sapiens, UniProt Q8TF76)).
The remaining binding was 89% (EGFR (Homo sapiens, UniProt P00533, L858R)).
For EGFR (Homo sapiens, UniProt P00533, T790M): remaining binding read 100%.
LIM domain kinase 2 (LIMK2, Homo sapiens, UniProt P53671) — remaining binding: 95%.

Study 2 — Compound: CCOc1cc2ncnc(Nc3cccc(Br)c3)c2cc1OCC; read-out: enzyme activity; action: inhibitor; tested at: 0.5 µM; reference: control
The remaining activity was 99.8% (PLK2 (Homo sapiens, UniProt Q9NYY3)).
The remaining activity was 69.5% (EPHA5 (Homo sapiens, UniProt P54756)).
The remaining activity was 34.3% (MKNK2 (Homo sapiens, UniProt Q9HBH9)).
The remaining activity was 95.8% (WNK2 (Homo sapiens, UniProt Q9Y3S1)).
MAPK13 (Homo sapiens, UniProt O15264) — remaining activity: 96.7%.
It gave 32.1% for remaining activity (LYN (Homo sapiens, UniProt P07948)).
For MAP2K6 (Homo sapiens, UniProt P52564): remaining activity read 92.6%.
For CSNK1A1 (Homo sapiens, UniProt P48729): remaining activity read 98.6%.
It gave 104% for remaining activity (AKT3 (Homo sapiens, UniProt Q9Y243)).
It gave 78.7% for remaining activity (LRRK2 (Homo sapiens, UniProt Q5S007)).
The remaining activity was 91.5% (MAP4K2 (Homo sapiens, UniProt Q12851)).
The remaining activity was 100% (PRKCD (Homo sapiens, UniProt Q05655)).
The remaining activity was 84.8% (NEK4 (Homo sapiens, UniProt P51957)).
The remaining activity was 74.4% (KIT (Homo sapiens, UniProt P10721)).
The remaining activity was 96.7% (PRKG1 (Homo sapiens, UniProt Q13976)).
For MAPK12 (Homo sapiens, UniProt P53778): remaining activity read 105%.
BTK (Homo sapiens, UniProt Q06187) — remaining activity: 72.7%.
For PRKCI (Homo sapiens, UniProt P41743): remaining activity read 100%.
For CSNK2A1 (Homo sapiens, UniProt P68400): remaining activity read 95.9%.
The remaining activity was 93.2% (MAP3K10 (Homo sapiens, UniProt Q02779)).
The remaining activity was 115% (CHEK1 (Homo sapiens, UniProt O14757)).
For IRAK4 (Homo sapiens, UniProt Q9NWZ3): remaining activity read 102%.
For Cyclin-dependent kinase 9, with cyclin T1 (CDK9, Homo sapiens, UniProt P50750): remaining activity read 98.5%.

Study 3 — read-out: enzyme activity; action: inhibitor; tested at: 77 µM; reference: untreated
Target: DNA polymerase theta, ATPase domain (POLQ, Homo sapiens, UniProt O75417)
Chain of UniProt O75417 (whole entry, unmodified, looked up): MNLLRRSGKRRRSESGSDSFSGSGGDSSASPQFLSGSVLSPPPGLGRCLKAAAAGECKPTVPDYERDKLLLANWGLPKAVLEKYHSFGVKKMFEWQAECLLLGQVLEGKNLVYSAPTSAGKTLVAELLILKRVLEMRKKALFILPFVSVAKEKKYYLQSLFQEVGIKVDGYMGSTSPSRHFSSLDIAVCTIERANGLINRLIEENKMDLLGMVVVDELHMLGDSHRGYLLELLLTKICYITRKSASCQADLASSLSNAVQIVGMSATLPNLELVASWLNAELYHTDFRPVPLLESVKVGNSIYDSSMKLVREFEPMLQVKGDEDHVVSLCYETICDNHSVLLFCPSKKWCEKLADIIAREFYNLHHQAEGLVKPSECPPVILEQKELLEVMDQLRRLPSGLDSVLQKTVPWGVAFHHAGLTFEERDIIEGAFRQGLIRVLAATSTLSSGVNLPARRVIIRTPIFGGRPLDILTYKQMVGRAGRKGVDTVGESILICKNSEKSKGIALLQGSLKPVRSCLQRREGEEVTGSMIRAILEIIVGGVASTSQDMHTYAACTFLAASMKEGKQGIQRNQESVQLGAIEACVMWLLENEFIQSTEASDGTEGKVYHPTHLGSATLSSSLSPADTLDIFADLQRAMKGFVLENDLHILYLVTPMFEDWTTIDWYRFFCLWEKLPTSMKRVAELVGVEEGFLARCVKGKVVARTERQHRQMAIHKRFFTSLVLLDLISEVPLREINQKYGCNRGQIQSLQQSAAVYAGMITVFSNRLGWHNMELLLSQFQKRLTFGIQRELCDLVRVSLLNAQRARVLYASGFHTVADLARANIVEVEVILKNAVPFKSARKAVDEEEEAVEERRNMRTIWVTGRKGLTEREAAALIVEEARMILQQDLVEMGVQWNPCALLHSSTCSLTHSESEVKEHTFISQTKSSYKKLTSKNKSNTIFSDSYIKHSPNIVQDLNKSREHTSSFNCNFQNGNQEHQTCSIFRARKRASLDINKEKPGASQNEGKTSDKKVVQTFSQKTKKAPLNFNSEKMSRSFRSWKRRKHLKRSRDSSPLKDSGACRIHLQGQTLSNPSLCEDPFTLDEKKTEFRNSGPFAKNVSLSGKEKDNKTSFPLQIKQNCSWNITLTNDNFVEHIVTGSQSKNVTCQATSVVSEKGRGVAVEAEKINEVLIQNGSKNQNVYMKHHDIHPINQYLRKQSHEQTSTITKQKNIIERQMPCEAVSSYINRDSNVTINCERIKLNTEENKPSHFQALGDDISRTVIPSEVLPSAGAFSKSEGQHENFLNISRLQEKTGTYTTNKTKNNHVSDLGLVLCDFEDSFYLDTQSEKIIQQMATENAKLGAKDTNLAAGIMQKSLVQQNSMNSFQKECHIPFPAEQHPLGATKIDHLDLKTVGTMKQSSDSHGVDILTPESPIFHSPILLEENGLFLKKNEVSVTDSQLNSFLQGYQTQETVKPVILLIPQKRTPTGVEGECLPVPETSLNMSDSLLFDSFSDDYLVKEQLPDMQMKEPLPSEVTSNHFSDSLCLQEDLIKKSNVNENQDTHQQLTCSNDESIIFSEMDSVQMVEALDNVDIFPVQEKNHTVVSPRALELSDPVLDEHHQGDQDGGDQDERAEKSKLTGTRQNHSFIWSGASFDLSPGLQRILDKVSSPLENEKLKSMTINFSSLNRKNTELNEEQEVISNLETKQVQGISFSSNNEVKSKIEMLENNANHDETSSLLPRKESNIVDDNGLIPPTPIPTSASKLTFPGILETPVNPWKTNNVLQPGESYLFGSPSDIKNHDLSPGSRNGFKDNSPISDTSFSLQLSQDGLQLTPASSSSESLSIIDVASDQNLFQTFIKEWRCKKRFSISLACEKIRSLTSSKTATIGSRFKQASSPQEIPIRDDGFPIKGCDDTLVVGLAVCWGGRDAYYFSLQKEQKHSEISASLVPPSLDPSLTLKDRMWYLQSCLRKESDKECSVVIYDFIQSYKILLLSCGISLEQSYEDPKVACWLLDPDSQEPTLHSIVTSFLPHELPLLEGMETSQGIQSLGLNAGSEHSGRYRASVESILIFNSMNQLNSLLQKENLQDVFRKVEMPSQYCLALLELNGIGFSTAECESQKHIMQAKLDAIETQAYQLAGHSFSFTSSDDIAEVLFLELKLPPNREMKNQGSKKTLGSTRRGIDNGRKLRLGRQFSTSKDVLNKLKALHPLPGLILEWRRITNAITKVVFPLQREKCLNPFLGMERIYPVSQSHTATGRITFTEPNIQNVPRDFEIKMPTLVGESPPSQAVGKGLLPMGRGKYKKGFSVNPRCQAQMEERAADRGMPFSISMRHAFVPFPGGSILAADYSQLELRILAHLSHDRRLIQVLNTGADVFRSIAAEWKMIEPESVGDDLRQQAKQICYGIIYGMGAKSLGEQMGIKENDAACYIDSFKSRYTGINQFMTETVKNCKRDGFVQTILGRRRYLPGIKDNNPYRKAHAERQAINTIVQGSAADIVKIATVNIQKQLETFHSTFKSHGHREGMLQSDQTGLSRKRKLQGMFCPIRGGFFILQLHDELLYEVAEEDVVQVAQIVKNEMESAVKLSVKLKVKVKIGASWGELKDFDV
`OC(CCN1CCCC1)(c1ccccc1)C1CCCCC1` (centres unmarked) gave a remaining activity of 104%.
The remaining activity of `NCCCCCNCC12CC3CC(CC(C3)C1)C2` is reported as 99.5%.
`NCCCC[C@H](N[C@@H](CCc1ccccc1)C(=O)O)C(=O)N1CCC[C@H]1C(=O)O` has a remaining activity of 98.3%.
`CC1(C)S[C@@H]2[C@H](NC(=O)[C@H](NC(=O)N3CCN(S(C)(=O)=O)C3=O)c3ccccc3)C(=O)N2[C@H]1C(=O)O` gave a remaining activity of 95.6%.
`O=C(N/N=C/c1ccc([N+](=O)[O-])o1)c1ccc(O)cc1` has a remaining activity of 92.2% and 100%.
`COc1cc(C(=O)NS(=O)(=O)c2ccccc2C)ccc1Cc1cn(C)c2ccc(NC(=O)OC3CCCC3)cc12` gave a remaining activity of 83.9%.
The remaining activity of `NC[C@@H](O)c1ccc(O)c(O)c1` is reported as 101%.
`NC(=O)C1CCCc2c1[nH]c1ccc(Cl)cc21` (centres unmarked) has a remaining activity of 81%.
`COc1cccc(C(=O)NCCN2CCN(c3ccc(Cl)cc3)CC2)c1` gave a remaining activity of 104%.
The remaining activity of `CCOC(=O)c1c(C)n(C)c2ccc(O)cc12` is reported as 104%.
With `C[C@H]1C[C@H]2[C@@H]3CCC4=CC(=O)C=C[C@]4(C)[C@H]3C(=O)C[C@]2(C)[C@@]1(O)C(=O)CO` the remaining activity was 95.5%.
The remaining activity of `CC#C[C@]1(O)CC[C@H]2[C@@H]3CCC4=CC(=O)CCC4=C3[C@@H](c3ccc(N(C)C)cc3)C[C@@]21C` is reported as 102% and 95.3% and 92.2%.
The remaining activity of `CC1(C)O[C@@H]2C[C@H]3[C@@H]4C[C@H](F)C5=CC(=O)C=C[C@]5(C)[C@H]4[C@@H](O)C[C@]3(C)[C@]2(C(=O)CO)O1` is reported as 93.9%.
The remaining activity of `COc1ccc2cc(CCC(C)=O)ccc2c1` is reported as 92.2% and 102%.
`CC(C)[C@H]1C(=O)N[C@@H](CCCNC(=N)N)C(=O)NCC(=O)N[C@@H](CC(=O)O)C(=O)N[C@H](Cc2ccccc2)C(=O)N1C` gave a remaining activity of 99.7%.
The remaining activity of `CC(=O)c1cc([N+](=O)[O-])c(Sc2ccc(F)cc2F)s1` is reported as 105%.

Study 4 — read-out: enzyme activity; action: inhibitor; tested at: 10 µM
Target: Calcium/calmodulin-dependent protein kinase type II subunit alpha (CAMK2A, Homo sapiens, UniProt Q9UQM7)
Chain of UniProt Q9UQM7 (whole entry, looked up): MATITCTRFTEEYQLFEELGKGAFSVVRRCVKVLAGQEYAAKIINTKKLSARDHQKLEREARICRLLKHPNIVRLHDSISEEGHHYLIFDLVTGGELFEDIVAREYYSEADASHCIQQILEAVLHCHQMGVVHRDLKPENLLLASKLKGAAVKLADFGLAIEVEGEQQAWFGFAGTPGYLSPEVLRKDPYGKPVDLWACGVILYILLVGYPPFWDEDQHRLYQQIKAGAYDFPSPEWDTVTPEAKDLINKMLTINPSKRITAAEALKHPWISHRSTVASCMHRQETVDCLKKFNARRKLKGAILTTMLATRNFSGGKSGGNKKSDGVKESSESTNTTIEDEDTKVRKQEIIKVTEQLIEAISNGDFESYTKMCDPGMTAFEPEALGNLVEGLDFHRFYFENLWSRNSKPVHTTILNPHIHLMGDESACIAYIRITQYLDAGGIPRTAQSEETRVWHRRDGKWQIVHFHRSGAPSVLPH
`CCC(C)CCCCC(=O)NCC[C@@H]1NC(=O)[C@H](CC(C)C)NC(=O)[C@H](CCN)NC(=O)[C@H](CC(C)C)NC(=O)[C@H](CCN)NC(=O)[C@H](CCN)NC(=O)[C@H](CCN)NC(=O)[C@H]([C@@H](C)O)NC1=O` (some centres unmarked) gave an inhibition of -9%.
The inhibition of `O=C(CCCCCCCCc1ccc(O)cc1)c1c(O)cccc1O` is reported as 2%.
With `O=c1[nH]cc([C@@H]2O[C@H](CO)[C@@H](O)[C@H]2O)c(=O)[nH]1` the inhibition was -11%.
With `C[C@@H]1CCC[C@H](C)N1CCCC(O)(c1ccccc1)c1ccccn1` (some centres unmarked) the inhibition was 1%.
`O=C(NCCO[N+](=O)[O-])c1cccnc1` has an inhibition of 3%.
With `COc1cc([C@@H]2c3cc4c(cc3[C@@H](O[C@@H]3O[C@@H]5CO[C@@H](C)O[C@H]5[C@H](O)[C@H]3O)[C@H]3COC(=O)[C@H]23)OCO4)cc(OC)c1OP(=O)(O)O` the inhibition was -8%.
The inhibition of `[2H]C([2H])([2H])NC(=O)c1nnc(NC(=O)C2CC2)cc1Nc1cccc(-c2ncn(C)n2)c1OC` is reported as 3%.
The inhibition of `O=C(Cn1ccnc1[N+](=O)[O-])NCc1ccccc1` is reported as -15%.
`O=C1C[C@@H](O[C@@H]2O[C@H](CO)[C@@H](O)[C@H](O)[C@H]2O)CO1` gave an inhibition of -3%.
With `Cc1ccc(-c2ccccc2)cc1` the inhibition was -16%.
For `CCc1nn(CCCN2CCN(c3cccc(Cl)c3)CC2)c(=O)n1CCOc1ccccc1`, the inhibition was -7%.
`Oc1nc(O)c2cn[nH]c2n1` gave an inhibition of -22%.
With `Nc1ncnc2c1ncn2[C@@H]1O[C@H](CSCC[C@H](N)C(=O)O)[C@@H](O)[C@H]1O` the inhibition was 0%.
For `CCCCCCCCCCCCCCCC(=O)OC/C=C(C)/C=C/C=C(C)/C=C/C1=C(C)CCCC1(C)C`, the inhibition was 3%.

Some of these lines once more (study 2):
The remaining activity was 34.3% (MKNK2 (Homo sapiens, UniProt Q9HBH9)).
The remaining activity was 84.8% (NEK4 (Homo sapiens, UniProt P51957)).
BTK (Homo sapiens, UniProt Q06187) — remaining activity: 72.7%.
It gave 32.1% for remaining activity (LYN (Homo sapiens, UniProt P07948)).
